Results of several laboratories.
A part holds a random share of what one study measured. Several values in a cell are separate wells, animals, samples, runs or records.
Chain of UniProt P10721 (whole entry, unmodified, looked up): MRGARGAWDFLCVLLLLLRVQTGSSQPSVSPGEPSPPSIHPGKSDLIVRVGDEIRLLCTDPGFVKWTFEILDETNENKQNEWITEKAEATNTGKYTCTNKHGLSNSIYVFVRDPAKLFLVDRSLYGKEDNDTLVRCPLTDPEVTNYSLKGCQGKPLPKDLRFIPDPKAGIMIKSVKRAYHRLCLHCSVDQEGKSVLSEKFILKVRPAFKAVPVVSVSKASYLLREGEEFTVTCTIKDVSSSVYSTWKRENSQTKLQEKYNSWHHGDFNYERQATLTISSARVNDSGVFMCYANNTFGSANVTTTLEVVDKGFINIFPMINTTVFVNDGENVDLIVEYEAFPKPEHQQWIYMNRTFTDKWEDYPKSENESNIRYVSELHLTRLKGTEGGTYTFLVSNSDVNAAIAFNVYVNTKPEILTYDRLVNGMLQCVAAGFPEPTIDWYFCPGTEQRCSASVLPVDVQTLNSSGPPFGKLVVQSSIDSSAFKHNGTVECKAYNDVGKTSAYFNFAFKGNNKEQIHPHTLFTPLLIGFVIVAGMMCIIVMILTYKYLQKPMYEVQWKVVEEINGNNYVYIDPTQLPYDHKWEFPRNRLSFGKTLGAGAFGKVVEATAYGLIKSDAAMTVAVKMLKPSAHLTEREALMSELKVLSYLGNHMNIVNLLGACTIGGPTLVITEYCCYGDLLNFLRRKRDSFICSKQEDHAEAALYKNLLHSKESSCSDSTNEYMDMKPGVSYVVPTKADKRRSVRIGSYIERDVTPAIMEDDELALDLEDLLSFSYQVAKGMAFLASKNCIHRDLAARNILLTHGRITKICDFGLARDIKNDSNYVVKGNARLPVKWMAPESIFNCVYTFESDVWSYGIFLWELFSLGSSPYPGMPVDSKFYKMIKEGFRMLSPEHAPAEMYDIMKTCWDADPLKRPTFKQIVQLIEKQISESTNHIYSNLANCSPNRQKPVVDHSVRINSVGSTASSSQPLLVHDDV
Chain of UniProt Q8IWQ3 (whole entry, looked up): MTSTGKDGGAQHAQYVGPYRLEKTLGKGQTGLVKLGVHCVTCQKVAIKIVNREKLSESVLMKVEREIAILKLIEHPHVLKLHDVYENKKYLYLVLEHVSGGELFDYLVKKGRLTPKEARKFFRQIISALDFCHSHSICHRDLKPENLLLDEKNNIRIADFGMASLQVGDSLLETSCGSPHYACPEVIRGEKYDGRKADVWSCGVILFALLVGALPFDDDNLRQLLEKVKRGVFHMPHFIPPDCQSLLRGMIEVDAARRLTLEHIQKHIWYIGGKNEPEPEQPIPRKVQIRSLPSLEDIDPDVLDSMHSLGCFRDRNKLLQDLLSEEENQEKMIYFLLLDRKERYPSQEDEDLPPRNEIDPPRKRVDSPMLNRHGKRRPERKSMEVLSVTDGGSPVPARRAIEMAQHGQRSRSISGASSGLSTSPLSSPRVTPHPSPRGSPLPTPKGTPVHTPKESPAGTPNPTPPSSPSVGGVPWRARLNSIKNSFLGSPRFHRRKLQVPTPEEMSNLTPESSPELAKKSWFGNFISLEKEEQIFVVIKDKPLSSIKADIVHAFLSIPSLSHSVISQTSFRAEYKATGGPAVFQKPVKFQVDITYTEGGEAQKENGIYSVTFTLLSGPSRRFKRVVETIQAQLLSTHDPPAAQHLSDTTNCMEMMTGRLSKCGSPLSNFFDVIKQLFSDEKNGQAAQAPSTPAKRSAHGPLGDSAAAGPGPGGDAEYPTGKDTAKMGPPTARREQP
Chain of UniProt Q8IVW4 (whole entry, looked up): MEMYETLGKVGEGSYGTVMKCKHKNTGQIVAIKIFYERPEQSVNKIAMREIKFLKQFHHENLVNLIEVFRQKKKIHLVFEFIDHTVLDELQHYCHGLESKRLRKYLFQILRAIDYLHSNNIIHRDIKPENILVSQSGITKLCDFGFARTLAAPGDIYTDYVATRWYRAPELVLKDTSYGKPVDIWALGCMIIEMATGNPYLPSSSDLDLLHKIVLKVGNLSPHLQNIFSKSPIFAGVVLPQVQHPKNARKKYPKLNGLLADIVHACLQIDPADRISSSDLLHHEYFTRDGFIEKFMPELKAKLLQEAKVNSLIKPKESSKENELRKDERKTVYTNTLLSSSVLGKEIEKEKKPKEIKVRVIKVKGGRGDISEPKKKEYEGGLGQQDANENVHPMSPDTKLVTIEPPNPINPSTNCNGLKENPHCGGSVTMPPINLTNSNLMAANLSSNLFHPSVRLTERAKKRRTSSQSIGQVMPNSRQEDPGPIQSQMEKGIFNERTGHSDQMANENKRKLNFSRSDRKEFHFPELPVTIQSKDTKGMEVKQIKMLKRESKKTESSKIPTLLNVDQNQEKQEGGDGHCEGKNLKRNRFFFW
Chain of UniProt P06213 (whole entry, looked up): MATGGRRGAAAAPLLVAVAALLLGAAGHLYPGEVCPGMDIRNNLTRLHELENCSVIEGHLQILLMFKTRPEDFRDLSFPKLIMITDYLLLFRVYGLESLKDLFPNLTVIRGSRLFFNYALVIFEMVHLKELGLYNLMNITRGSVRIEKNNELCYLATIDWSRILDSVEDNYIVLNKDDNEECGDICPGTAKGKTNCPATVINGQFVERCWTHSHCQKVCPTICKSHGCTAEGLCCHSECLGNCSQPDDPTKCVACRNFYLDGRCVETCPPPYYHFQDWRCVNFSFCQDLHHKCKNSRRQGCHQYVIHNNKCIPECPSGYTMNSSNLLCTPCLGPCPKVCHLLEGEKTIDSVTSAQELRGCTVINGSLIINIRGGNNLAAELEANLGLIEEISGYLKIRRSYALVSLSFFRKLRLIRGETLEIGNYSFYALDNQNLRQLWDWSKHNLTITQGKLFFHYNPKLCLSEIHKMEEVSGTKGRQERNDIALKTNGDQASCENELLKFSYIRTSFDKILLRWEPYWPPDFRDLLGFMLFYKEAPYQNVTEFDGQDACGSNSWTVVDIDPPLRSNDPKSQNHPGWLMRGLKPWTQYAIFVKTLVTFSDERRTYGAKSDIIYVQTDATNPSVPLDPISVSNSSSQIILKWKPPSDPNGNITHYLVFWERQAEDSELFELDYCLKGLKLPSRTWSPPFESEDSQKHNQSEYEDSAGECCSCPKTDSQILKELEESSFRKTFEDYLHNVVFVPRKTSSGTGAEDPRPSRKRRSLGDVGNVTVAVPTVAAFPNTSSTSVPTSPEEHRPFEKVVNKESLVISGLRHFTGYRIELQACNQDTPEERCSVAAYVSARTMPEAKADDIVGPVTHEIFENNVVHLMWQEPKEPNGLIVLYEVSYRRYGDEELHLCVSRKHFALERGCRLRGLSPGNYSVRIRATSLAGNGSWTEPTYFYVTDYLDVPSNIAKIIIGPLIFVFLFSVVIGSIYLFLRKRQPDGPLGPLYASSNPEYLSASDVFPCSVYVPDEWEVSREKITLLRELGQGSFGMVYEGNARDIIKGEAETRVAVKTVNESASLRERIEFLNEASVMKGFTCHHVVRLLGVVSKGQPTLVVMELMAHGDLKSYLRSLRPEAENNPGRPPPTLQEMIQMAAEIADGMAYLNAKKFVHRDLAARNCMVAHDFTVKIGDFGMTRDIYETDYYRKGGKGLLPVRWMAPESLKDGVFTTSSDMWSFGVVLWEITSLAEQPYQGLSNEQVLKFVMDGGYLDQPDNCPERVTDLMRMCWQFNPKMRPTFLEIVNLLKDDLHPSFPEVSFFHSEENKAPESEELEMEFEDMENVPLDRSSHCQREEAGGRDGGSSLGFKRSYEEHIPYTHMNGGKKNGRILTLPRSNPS
Chain of UniProt Q9BRS2 (whole entry, looked up): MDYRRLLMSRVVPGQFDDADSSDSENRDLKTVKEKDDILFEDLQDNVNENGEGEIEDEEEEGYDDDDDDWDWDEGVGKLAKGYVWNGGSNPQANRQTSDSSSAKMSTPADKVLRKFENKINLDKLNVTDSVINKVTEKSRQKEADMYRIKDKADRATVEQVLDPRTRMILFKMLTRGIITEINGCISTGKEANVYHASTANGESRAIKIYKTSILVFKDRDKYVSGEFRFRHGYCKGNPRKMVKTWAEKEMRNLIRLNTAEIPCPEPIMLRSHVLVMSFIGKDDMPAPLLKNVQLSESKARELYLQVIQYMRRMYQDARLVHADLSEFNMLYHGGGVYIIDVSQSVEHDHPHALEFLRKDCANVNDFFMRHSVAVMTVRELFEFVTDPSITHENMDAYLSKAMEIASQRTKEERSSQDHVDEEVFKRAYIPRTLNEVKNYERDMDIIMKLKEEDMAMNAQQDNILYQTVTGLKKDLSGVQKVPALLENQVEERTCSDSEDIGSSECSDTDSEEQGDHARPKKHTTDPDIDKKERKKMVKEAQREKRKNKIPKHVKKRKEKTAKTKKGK
Chain of UniProt O60331 (whole entry, looked up): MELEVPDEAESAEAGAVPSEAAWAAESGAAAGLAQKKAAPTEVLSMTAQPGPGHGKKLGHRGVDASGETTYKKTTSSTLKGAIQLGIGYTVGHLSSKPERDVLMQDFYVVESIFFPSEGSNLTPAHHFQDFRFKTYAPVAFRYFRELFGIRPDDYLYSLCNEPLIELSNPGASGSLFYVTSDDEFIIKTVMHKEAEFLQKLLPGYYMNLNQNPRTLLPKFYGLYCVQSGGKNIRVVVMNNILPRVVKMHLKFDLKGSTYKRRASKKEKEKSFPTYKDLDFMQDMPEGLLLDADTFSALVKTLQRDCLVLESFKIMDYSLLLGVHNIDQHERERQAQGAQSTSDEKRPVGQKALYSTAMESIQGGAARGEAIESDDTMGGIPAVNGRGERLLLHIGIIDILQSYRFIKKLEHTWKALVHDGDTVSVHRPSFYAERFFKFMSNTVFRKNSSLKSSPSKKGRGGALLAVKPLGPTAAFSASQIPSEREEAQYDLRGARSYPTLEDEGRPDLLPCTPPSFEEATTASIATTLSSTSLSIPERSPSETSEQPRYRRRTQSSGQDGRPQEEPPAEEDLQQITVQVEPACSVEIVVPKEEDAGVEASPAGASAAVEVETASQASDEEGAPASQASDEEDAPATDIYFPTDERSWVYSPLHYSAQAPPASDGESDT

Block 1 — cell line: A-375; tested at: 100 µM; time: 18 h
SMILES | viability
CCOc1ccc(Cc2nccc3cc(OCC)c(OCC)cc23)cc1OCC | 61.6%
NCCc1ccc(O)c(O)c1 | 123%
CN(C)CCc1c[nH]c2ccc(Cn3cncn3)cc12 | 103%
CC12CC3CC(C)(C1)CC(N)(C3)C2 | 76.2%
CC(=O)OCC(=O)[C@@]12N=C(C)O[C@@H]1C[C@H]1[C@@H]3CCC4=CC(=O)C=C[C@]4(C)[C@H]3[C@@H](O)C[C@@]12C | 95.4%
CC1=C(C(=O)OC(C)C)C(c2cccc([N+](=O)[O-])c2)C(C(=O)OC2CN(C(c3ccccc3)c3ccccc3)C2)=C(N)N1 (stereo not shown) | 12.1%
CC(=O)OCC(=O)[C@H]1CC[C@H]2[C@@H]3CCC4=CC(=O)CC[C@]4(C)[C@H]3CC[C@]12C | 80.5%
O=C(Nc1c(Cl)cncc1Cl)c1ccc(OC(F)F)c(OCC2CC2)c1 | 60.9%
COc1cc(NS(C)(=O)=O)ccc1Nc1c2ccccc2nc2ccccc12 | 16.1%
COc1cc(S(=O)(=O)O)ccc1O | 106% and 89.7%
Cc1cccc(CN2CCN(C(c3ccccc3)c3ccc(Cl)cc3)CC2)c1 (stereo not shown) | 81.4%
CCC[C@H](N[C@@H](C)C(=O)N1[C@H](C(=O)O)C[C@@H]2CCCC[C@@H]21)C(=O)OCC | 102%
CO/N=C(\C(=O)N[C@@H]1C(=O)N2C(C(=O)O)=C(COC(N)=O)CS[C@H]12)c1ccco1 | 102%
Cc1cn(-c2cc(NC(=O)c3ccc(C)c(Nc4nccc(-c5cccnc5)n4)c3)cc(C(F)(F)F)c2)cn1 | 8.75%

Block 2 — observed: cell-free assay; technique: competition with immobilised ligand; tested at: 1 µM
Compound: O=C(Nc1cccnn1)N1CCC(=Cc2cccc(Oc3ccc(C(F)(F)F)cn3)c2)CC1
target | remaining binding
Ephrin type-A receptor 4 (EPHA4, Homo sapiens, UniProt P54764) | 100%
Platelet-derived growth factor receptor alpha (PDGFRA, Homo sapiens, UniProt P16234) | 100%
Phosphatidylinositol 4,5-bisphosphate 3-kinase catalytic subunit alpha isoform (PIK3CA, Homo sapiens, UniProt P42336, M1043I) | 65%
Serine/threonine-protein kinase BRSK2 (BRSK2, Homo sapiens, UniProt Q8IWQ3) | 90%
Mast/stem cell growth factor receptor Kit (KIT, Homo sapiens, UniProt P10721, V559D) | 75%
Cyclin-dependent kinase-like 2 (CDKL2, Homo sapiens, UniProt Q92772) | 92%
5'-AMP-activated protein kinase catalytic subunit alpha-1 (PRKAA1, Homo sapiens, UniProt Q13131) | 88%
Mitogen-activated protein kinase 8 (MAPK8, Homo sapiens, UniProt P45983) | 100%
Tyrosine-protein kinase FRK (FRK, Homo sapiens, UniProt P42685) | 100%
Tyrosine-protein kinase ABL1, phosphorylated (ABL1, Homo sapiens, UniProt P00519, H396P) | 100%
Ribosomal protein S6 kinase alpha-6, N-terminal kinase domain (RPS6KA6, Homo sapiens, UniProt Q9UK32) | 100%
Serine/threonine-protein kinase RIO1 (RIOK1, Homo sapiens, UniProt Q9BRS2) | 100%
Phosphatidylinositol 4-phosphate 5-kinase type-1 gamma (PIP5K1C, Homo sapiens, UniProt O60331) | 66%
Cyclin-dependent kinase-like 3 (CDKL3, Homo sapiens, UniProt Q8IVW4) | 81%
Mast/stem cell growth factor receptor Kit, autoinhibited (KIT, Homo sapiens, UniProt P10721) | 100%
NT-3 growth factor receptor (NTRK3, Homo sapiens, UniProt Q16288) | 100%
Protein kinase C theta type (PRKCQ, Homo sapiens, UniProt Q04759) | 67%
Dual specificity tyrosine-phosphorylation-regulated kinase 2 (DYRK2, Homo sapiens, UniProt Q92630) | 81%
Phosphatidylinositol 3-kinase C2 domain-containing subunit gamma (PIK3C2G, Homo sapiens, UniProt O75747) | 95%
Cyclin-dependent kinase 18 (CDK18, Homo sapiens, UniProt Q07002) | 76%
Calcium/calmodulin-dependent protein kinase type 1D (CAMK1D, Homo sapiens, UniProt Q8IU85) | 97%

Block 3 — organism: Leishmania donovani; strain: DD8; matrix: promastigotes
Compound: C[C@@H]1[C@H](O)[C@@H](C)/C=C/C=C/C=C/C=C/C=C/C=C/C=C/[C@H](O[C@@H]2O[C@H](C)[C@@H](O)[C@H](N)[C@@H]2O)C[C@@H]2O[C@](O)(C[C@@H](O)C[C@@H](O)[C@H](O)CC[C@@H](O)C[C@@H](O)CC(=O)O[C@H]1C)C[C@H](O)[C@H]2C(=O)O
setting | promastigote number
33330 µM, 24 h | 1470 and 1480
60 µM, 72 h | 4.45e+06 and 4.56e+06
16660 µM, 72 h | 1590 and 1250
60 µM, 48 h | 2.07e+06 and 2.1e+06
66660 µM, 48 h | 1250 and 1240
330 µM, 24 h | 845000 and 856000

Block 4 — observed: enzyme activity; mode: inhibitor; tested at: 0.5 µM; relative to: control
SMILES: Cc1ccc(NC(=O)c2ccc(CN3CCN(C)CC3)cc2)cc1Nc1nccc(-c2cccnc2)n1
target | remaining activity
Tyrosine-protein kinase Fer (FER, Homo sapiens, UniProt P16591) | 94.3%
Serine/threonine-protein kinase 25 (STK25, Homo sapiens, UniProt O00506) | 98.4%
Serine/threonine-protein kinase MRCK alpha (CDC42BPA, Homo sapiens, UniProt Q5VT25) | 86.7%
Serine/threonine-protein kinase TAO3 (TAOK3, Homo sapiens, UniProt Q9H2K8) | 94.7%
Tyrosine-protein kinase ITK/TSK (ITK, Homo sapiens, UniProt Q08881) | 98.2%
cAMP-dependent protein kinase catalytic subunit PRKX (PRKX, Homo sapiens, UniProt P51817) | 103%
Cyclin-dependent kinase 3, with cyclin E (CDK3, Homo sapiens, UniProt Q00526) | 97.5%
Insulin receptor (INSR, Homo sapiens, UniProt P06213) | 109%
Serine/threonine-protein kinase NLK (NLK, Homo sapiens, UniProt Q9UBE8) | 104%
PAS domain-containing serine/threonine-protein kinase (PASK, Homo sapiens, UniProt Q96RG2) | 98.9%
ALK tyrosine kinase receptor (ALK, Homo sapiens, UniProt Q9UM73) | 95.1%

Excerpt of the above (block 4):
target | remaining activity
Cyclin-dependent kinase 3, with cyclin E (CDK3, Homo sapiens, UniProt Q00526) | 97.5%
Insulin receptor (INSR, Homo sapiens, UniProt P06213) | 109%
Serine/threonine-protein kinase NLK (NLK, Homo sapiens, UniProt Q9UBE8) | 104%
